Assay results pooled from the literature.
Protocols differ between the studies behind these lines. “And” joins repeats or separate records; there may be more than shown. ± marks the error that the study gave.

Under “CD8+ T cells”, `C=Cc1c(C)c2cc3nc(c(CC(=O)O)c4[nH]c(cc5nc(cc1[nH]2)C(C)=C5CC)c(C)c4C(=O)O)[C@@H](CCC(=O)O)[C@@H]3C` is recorded as 2.94% and 3.47% and 2.95% and 2.68% (flow cytometry; 4T1 tumour-bearing mice, spleen; dose not given).
`c1ccc(-c2n[nH]cc2-c2ccnc3ccccc23)nc1` — result for “log2 fold change”: 1.43 (kinase binding, competitor, MIB/MS competition, item: CKA2; Candida albicans cell lysate; 10 µM; baseline: DMSO).
For `CCc1c(C)nc(-c2ccc(Cl)s2)nc1Nc1ccc(CC(=O)O)cc1`, “gonadal white adipose weight” read “no effect” (C57BL/6J mouse, high-fat diet MASH model; intraperitoneal, 0.3 mg/kg daily, 60% fat diet for 12 weeks, dosed final four weeks; baseline: untreated).
For `CCN(Cc1nc2c(N)nc3cc(-c4cc[nH]n4)ccc3c2[nH]1)C(C)=O`, “mean fold change” read 2.2 (immunohistochemistry, item: MPO+ TANs; patients with advanced solid tumours, non-injected tumour lesions; dose not given, monotherapy; baseline: baseline).
For `N#Cc1ccc2c(c1)[C@H]1CCCN(C(=O)c3ccc4[nH]cnc4c3)[C@H]1C2`, “glucose AUC change” read 1.42 mmol/h/L (meal tolerance test; human, Phase II trial; 80 mg once daily, day 28, AUC0-2 h, adjusted mean; baseline: baseline).
For `CC(C)NCC(O)c1ccc(O)c(O)c1` (stereo not drawn), the sarcomere length was 1.63 µm (ventricular cardiomyocytes, C57BL/6 mouse; dose not given, 0.256 s).
`O=C(O)C1=CC(=C(c2ccc(O)c(C(=O)O)c2)c2ccc(O)c(C(=O)O)c2)C=CC1=O` — result for neutrophil signal: “decreased” (immunohistochemistry, item: Ly6G; C57BL/6J mouse MC-38 tumour, tumour necrotic areas; peritumoral, dose not given; baseline: vehicle).
`COc1cnc(-n2cnc(C)n2)c2[nH]cc(C(=O)C(=O)N3CCN(C(=O)c4ccccc4)CC3)c12` gave an Emax of 1 log10 copies/mL (item: HIV-1 RNA change; HIV-1 patients, plasma).
`Oc1nc2nonc2cc1Nc1c(F)c(F)c(F)c(F)c1F`: “fat mass gain reduction” 59% (Western diet-fed mice; in diet, dose not given; baseline: untreated).
`C[C@H]1C[C@H]2CSC(N)=N[C@@]2(c2nc(NC(=O)c3ccc(OC(F)F)cn3)cs2)CO1` — result for “percent change from baseline”: -67% (item: Aβx-40; healthy adults, plasma; 400 mg single dose, 48 h post-dose; baseline: placebo).
For `C=CCn1c(=O)c2cnc(Nc3ccc(N4CCN(C)CC4)cc3)nc2n1-c1ccc2c(n1)[C@@](O)(CC)CC2`, “tumour growth inhibition” read 50.1% (MIA PaCa-2, BALB/c nude mice, xenograft; oral, 80 mg/kg once daily, day 21; baseline: vehicle).
With `CC(C)(C)OC[C@@H]1C(=O)NCCN1C(=O)C[C@H](N)Cc1cc(F)c(F)cc1F` the glucose AUEC was 345 ± 40.2 mg·h/dL (healthy Korean men, blood; oral, dose not given, 2 h, steady state OGTT).
Under “change in EEG Alpha2-power Fz-Cz”, `OC(CCN1CCCCC1)(c1ccccc1)C1CC2C=CC1C2` (stereo not drawn) is recorded as 49.7% (resting-state EEG; healthy elderly humans; oral, 4 mg, eyes open, LS mean; baseline: baseline).
The fractional shortening of `Cc1c(NC(=O)c2cccnc2)c(=O)n(-c2ccccc2)n1C` is reported as 33.3% and 31.5% and 32.9% and 32.5% and 35.6% (echocardiography; Dmd C3333Y mouse; dose not given).
`CN(C)C(=O)c1cc2cnc(Nc3ccc(N4CCNCC4)cn3)nc2n1C1CCCC1`: “GSEA enrichment score” -0.355 (RNA sequencing, item: HALLMARK_KRAS_SIGNALING_DN; MB002 tumour; concentration not given; baseline: vehicle, direction not given).
With `O=P(O)(O)C(Cl)(Cl)P(=O)(O)O` the Iba1-positive area was 0.69% and 1.12% and 0.65% (Mus musculus, subarachnoid haemorrhage, meninges; concentration not given, day 1; baseline: total area).
`CC(C)(C)c1sc2ncnc(Oc3c(F)cccc3OC(F)(F)F)c2c1-c1ccc(Cl)cc1` has a Hill slope of 1.31 (heat hyperalgesia; humanized MrgprX1 mice, CCI; oral).
`CC[C@H](C)[C@H](NC(=O)[C@H](C)NC(=O)CNC(=O)[C@H](Cc1ccccc1)NC(=O)[C@H](CC(N)=O)NC(=O)[C@H](CC(N)=O)NC(=O)[C@H](CO)NC(=O)[C@H](CO)NC(=O)[C@H](Cc1c[nH]cn1)NC(=O)[C@@H](NC(=O)[C@H](CC(C)C)NC(=O)[C@H](Cc1ccccc1)NC(=O)[C@H](CC(N)=O)NC(=O)[C@H](C)NC(=O)[C@H](CC(C)C)NC(=O)[C@H](CCCNC(=N)N)NC(=O)[C@H](CCC(N)=O)NC(=O)[C@@H](NC(=O)[C@H](C)NC(=O)[C@@H]1CSSC[C@H](NC(=O)[C@@H](N)CCCCN)C(=O)N[C@@H](CC(N)=O)C(=O)N[C@@H]([C@@H](C)O)C(=O)N[C@@H](C)C(=O)N[C@@H]([C@@H](C)O)C(=O)N1)[C@@H](C)O)C(C)C)C(=O)N[C@@H](CC(C)C)C(=O)N[C@@H](CO)C(=O)N[C@@H](CO)C(=O)N[C@H](C(=O)N[C@@H](CC(N)=O)C(=O)N[C@H](C(=O)NCC(=O)N[C@@H](CO)C(=O)N[C@@H](CC(N)=O)C(=O)N[C@H](C(=O)N[C@@H](Cc1ccc(O)cc1)C(N)=O)[C@@H](C)O)C(C)C)[C@@H](C)O`: “insulin content reduction” roughly 45% (isolated mouse islets; 10 µM, 24 h; baseline: control).
`CSCCNc1nc(SCCC(F)(F)F)nc2c1ncn2[C@@H]1O[C@H](COP(=O)(O)OP(=O)(O)C(Cl)(Cl)P(=O)(O)O)[C@@H](O)[C@H]1O` — result for “patients with inhibition above threshold”: 2.6% (platelet aggregation, light transmission aggregometry; human patients, platelet-rich plasma; dose not given, 4 to 6 h, inhibition threshold 90%, added: ADP 5 µM).
Under “delta delta Ct”, `COc1ccc(-c2cncc(N[C@@H](C)c3cccc(NC(=O)c4cncc(C)c4)c3)n2)cc1OC` is recorded as -0.594 (item: rno-miR-25-3p; rat SU5416/hypoxia model, lung; dose not given, unit not given; baseline: SU5416/hypoxia vehicle).
For `Nc1nc2cc(-c3ccc4ncc(C(=O)N5CCOCC5)n4c3)ccc2o1`, “clinical benefit rate” read 40% (RECIST v1.1; advanced solid tumour patients; dose not given, once-daily dosing).
`NC(=O)c1cnc2[nH]ccc2c1N[C@@H]1[C@@H]2CC3C[C@H]1C[C@@](O)(C3)C2`: “regulatory T-cell change” -0.48% (flow cytometry; Japanese healthy men, blood; oral, 100 mg twice daily, 72 h after day 7 dose; baseline: baseline).
With `O=C1O[C@H]([C@@H](O)CO)C(O)=C1O` the inhibition was 35.8% (nitric oxide scavenging; 80 µM).
The inhibition of `CN[C@@H]1COc2c(S(=O)(=O)NC(=O)Nc3c4c(cc5c3CCC5)CCC4)cnn2C1` is reported as 99.6% (item: IL-18; human participants, whole blood ex vivo; 900 mg twice daily, multiple doses, 96 h, IL-18, circulating, adjusted for, added: LPS/ATP; baseline: baseline).
Under “log2 fold change”, `N#Cc1ccn2c(-c3ccncc3)c(-c3ccc(F)cc3)nc2c1` is recorded as 0.339 (kinase binding, competitor, MIB/MS competition, item: CKA2; Candida albicans cell lysate; 100 nM; baseline: DMSO).
`CN(C)C(=N)N=C(N)N` — result for “HbA1c at end of treatment”: 9.07 ± 0.1% (ZDF rat; 100 mg/kg/day, 6 weeks).
Under “change in fasting glucose”, `N#Cc1ccc2c(c1)[C@H]1CCCN(C(=O)c3ccc4[nH]cnc4c3)[C@H]1C2` is recorded as 1.2% (human, plasma; 20 mg, day 15, 360 h; baseline: placebo and baseline).
`CC1(C)CCC(CN2CCN(c3ccc(C(=O)NS(=O)(=O)c4ccc(NCC5CCOCC5)c([N+](=O)[O-])c4)c(Oc4cnc5[nH]ccc5c4)c3)CC2)=C(c2ccc(Cl)cc2)C1` has an EC50 of 15.8 nM (cell killing; canine lymph node CD21+ B cells, dog 33; 24 h).
Under “maximum change in diastolic blood pressure”, `CCO` is recorded as -13.7 ± 5.5 mmHg (supine; concentration not given, 0 to 4 h; baseline: baseline).
`Cc1n[nH]c2ccc(-c3cc(OC[C@@H](N)Cc4ccccc4)cnc3-c3ccoc3)cc12`: “log2 fold change” -0.488 (kinase binding, competitor, MIB/MS competition, item: YCK2; Candida albicans cell lysate; 100 nM; baseline: DMSO).
`CCCCCN1C[C@H](O)[C@@H](O)[C@H](O)[C@@H]1CO`: “number of decreased sphingolipids” 35 (mouse Hexb-/-, liver; 300 mg/kg/day; baseline: untreated Hexb-/- mice).
The inhibition of `NCC(=O)Nc1cncc(-c2nn3c(=O)cc(N4CCNCC4)nc3s2)c1` is reported as 48.9% (ADP-induced platelet aggregation, light transmission aggregometry; human, stable CAD on aspirin, platelets ex vivo; subcutaneous, 0.075 mg/kg, 90 min post-dose, added: ADP 20 µM).
For `O=C(COc1ccc(Cl)cc1)NC12CC(c3nnc([C@H]4C[C@@H](OC(F)(F)F)C4)o3)(C1)C2`, “CHAC1 mRNA change” read -69.3% (healthy human, PBMC; oral, 800 mg single dose, day 1, 4 h post-dose, median, added: sodium arsenite ex vivo; baseline: baseline).
For `CN(C(=O)n1cnc(-c2ccc[n+]([O-])c2)c1)C1CCCCC1`, the anandamide level was 92 ± 5 pmol/g (mice, brain; oral, 3 mg/kg, 4 h).
The train-of-four ratio of `CN(C)C(=O)Oc1cccc([N+](C)(C)C)c1` is reported as 4.94 (neuromuscular block reversal; rat; dose not given, 3 (unit not given), added: cisatracurium; baseline: T1 twitch).
`C[C@H](Oc1ccc(Br)cc1-c1ccon1)C(=O)O` gave a latency of 0.07 ms (muscle velocity recovery cycles; human, tibialis anterior muscle; 400 mg once daily, multiple doses, multiple ascending dose; baseline: placebo).
`COc1nnc2ccc(N3CCC(c4ccc(OCCN5CCN(C)C(=O)[C@H]5C)cc4)CC3)nn12`: “time above HEXIM1 threshold” 1.7 h (human patients; 2 mg once daily, above baseline variability).
For `CN1CCN(c2cc(-c3ccncc3)c(-c3ccc4ccccc4c3)nn2)CC1`, “amyloid plaque burden” read “no effect” (APP/PS1 transgenic mouse; dose not given).
`COc1ccccc1[C@H](Cn1c(=O)n(C(C)(C)C(=O)O)c(=O)c2c(C)c(-c3ncco3)sc21)OC1CCOCC1` — result for “fractional hepatic DNL”: 6.5 % new palmitate ([1-13C]acetate infusion, isotopomer analysis; overweight or obese healthy men, plasma VLDL-TG palmitate; oral, 200 mg single dose, -1 h relative to dose, fasted baseline).
For `O=C(O)CNC(=O)Cc1ccccc1`, the sarcomere length was 1.72 µm (ventricular cardiomyocytes, C57BL/6 mouse; dose not given, 0.436 s).
Under “change in fasting plasma glucose”, `Cc1ccc([C@@H]2O[C@H](CO)[C@@H](O)[C@H](O)[C@H]2O)cc1Cc1ccc(-c2ccc(F)cc2)s1` is recorded as -25 mg/dL (Japanese type 2 diabetes patients; 25 mg, day 17; baseline: day 1).
`Cn1cc(Nc2nccc(-c3ccc4c(c3)CN(C3COC3)CC[C@H]4NC(=O)c3cn(C(C)(C)C)nn3)n2)cn1`: “pathway activation z-score” -1.34 (item: glycolysis I; splenic B cells, mice; 30 mg/kg, IgD-activated in vivo; baseline: vehicle, direction not given).
For `C[C@]12CC[C@@H]3c4ccc(O)cc4CC[C@H]3[C@@H]1CC[C@@H]2O`, the mRNA level was 0.0055 (RT-qPCR, item: CO; Arabidopsis thaliana ING1:FLAG seedlings; dose not given, 4 h, unit not given; baseline: TUB2).
`O=C1Nc2cc3[nH]nc(-c4ccncc4)c3cc2CN1Cc1ccccc1` — result for “partial response, best response”: 0% (RECIST v1.1; human, relapsed or refractory advanced solid tumours; intravenous, 7.2 mg/kg).
Under “log2 fold change”, `N#Cc1ccc2c(-c3ccncc3)c(-c3ccc(F)cc3)nn2c1` is recorded as 0.283 (kinase binding, competitor, MIB/MS competition, item: SCH9; Candida albicans cell lysate; 100 nM; baseline: DMSO).

Excerpt of the above:
`NC(=O)c1cnc2[nH]ccc2c1N[C@@H]1[C@@H]2CC3C[C@H]1C[C@@](O)(C3)C2`: “regulatory T-cell change” -0.48% (flow cytometry; Japanese healthy men, blood; oral, 100 mg twice daily, 72 h after day 7 dose; baseline: baseline).
With `O=C1O[C@H]([C@@H](O)CO)C(O)=C1O` the inhibition was 35.8% (nitric oxide scavenging; 80 µM).
The inhibition of `CN[C@@H]1COc2c(S(=O)(=O)NC(=O)Nc3c4c(cc5c3CCC5)CCC4)cnn2C1` is reported as 99.6% (item: IL-18; human participants, whole blood ex vivo; 900 mg twice daily, multiple doses, 96 h, IL-18, circulating, adjusted for, added: LPS/ATP; baseline: baseline).
Under “log2 fold change”, `N#Cc1ccn2c(-c3ccncc3)c(-c3ccc(F)cc3)nc2c1` is recorded as 0.339 (kinase binding, competitor, MIB/MS competition, item: CKA2; Candida albicans cell lysate; 100 nM; baseline: DMSO).
`CN(C)C(=N)N=C(N)N` — result for “HbA1c at end of treatment”: 9.07 ± 0.1% (ZDF rat; 100 mg/kg/day, 6 weeks).
Under “change in fasting glucose”, `N#Cc1ccc2c(c1)[C@H]1CCCN(C(=O)c3ccc4[nH]cnc4c3)[C@H]1C2` is recorded as 1.2% (human, plasma; 20 mg, day 15, 360 h; baseline: placebo and baseline).
